Experimental data gathered from unrelated publications.
Values joined by “and” are separate records of one study, mostly repeats; a detail may differ. Numbers after ± are the reported error.

C[C@@H](NC(=O)N1C(=O)[C@H](Cc2ccnc(N)c2)[C@H]1C(=O)O)C1CCCCC1 — subjects with albuminuria (healthy Chinese adult volunteers; continuous intravenous infusion, dose not given, 5.0 days, all doses pooled): 15%
CO[C@H]1C[C@@H]2CC[C@@H](C)[C@@](O)(O2)C(=O)C(=O)N2CCCC[C@H]2C(=O)O[C@H]([C@H](C)C[C@@H]2CC[C@@H](OC(=O)NCCOCCOCCOCCOCCOCCOCCOCCOCCC(=O)N3CCc4cc(Cn5nc(-c6ccc7oc(N)nc7c6)c6c(N)ncnc65)ccc4C3)[C@H](OC)C2)C[C@@H](O)[C@H](C)/C=C(\C)[C@@H](O)[C@@H](OC)C(=O)[C@H](C)C[C@H](C)/C=C/C=C/C=C/1C — AE leading to discontinuation (patients with advanced solid tumours; intravenous, 6 mg weekly, any grade): 8.3%
O=C(Nc1ccccc1)C1CCN(C(=O)Oc2cccnc2)CC1 — subjects with ear discomfort (adverse event reporting; healthy women; oral, 60 mg, 7 days): 0%
C[C@@H](O)[C@@H]1NC(=O)[C@H](CCCCN)NC(=O)[C@@H](Cc2c[nH]c3ccccc23)NC(=O)[C@H](Cc2ccccc2)NC(=O)[C@@H](NC(=O)[C@H](N)Cc2ccccc2)CSSC[C@@H](C(=O)N[C@H](CO)[C@@H](C)O)NC1=O — clearance (population PK model; healthy and acromegaly subjects, plasma; subcutaneous, typical 75 kg subject): 160 mL/min
Cc1ccc(F)c2cc(C(=O)N[C@@H]3CCC[C@H](N4CC[C@H](N(C)S(C)(=O)=O)C4)C3)[nH]c12 — terminal half-life (CD1 mouse; oral, 100 mg/kg): 2.1 h
NCCCC[C@@H]1NC(=O)[C@@H](Cc2c[nH]c3ccccc23)NC(=O)[C@H](c2ccccc2)NC(=O)[C@@H]2C[C@@H](OC(=O)NCCN)CN2C(=O)[C@H](Cc2ccccc2)NC(=O)[C@H](Cc2ccc(OCc3ccccc3)cc2)NC1=O — placebo-corrected QTcF change (healthy volunteers, female; 1950 µg twice daily, 1.5 h, post hoc): 10.5 ms
C=C(CN(C(=O)c1c(C(F)F)nn(C)c1F)C1CC1)c1ccc(Cl)cc1Cl — mortality (static acute toxicity test; zebrafish (Brachydanio rerio); 0.578 mg a.i./L, 48 h): 0%
CC(C)(C(=O)NC1C2CC3CC1CC(C(N)=O)(C3)C2)N1CCN(c2ccc(C(F)(F)F)cn2)CC1 (centres unmarked) — dose-normalised free Cmax (human, plasma; 50 mg once daily, 5 days, median): 0.118 (ng/mL)/mg
Cn1cncc1-c1c(F)cncc1NC(=O)c1c(N)nn2cc(F)cnc12 — dose-limiting toxicity platelet decrease (human patients; oral, 270 mg once daily, 21 days): 25%
CNC(=O)c1cc(Oc2ccc(NC(=O)Nc3cc(C(C)(C)C)nn3-c3ccc4ncccc4c3)c(F)c2)ccn1 — related SAE (muscular weakness, NCI CTC v3.0; human patients; oral, 1200 mg once daily, dose at onset): 33%
COc1ccnc(C(=O)N[C@H]2COC(=O)[C@H](Cc3ccccc3)[C@@H](OC(=O)C(C)C)[C@H](C)OC2=O)c1OCOC(=O)C(C)C — NOAEL (liver toxicity; dog; oral, 1 year): 84 mg/kg/day
CC[C@H](C)[C@H](NC(=O)[C@H](C)NC(=O)[C@H](CCCCN)NC(=O)[C@H](CC(C)C)NC(=O)[C@H](C)NC(=O)[C@@H](NC(=O)[C@H](Cc1c[nH]cn1)NC(=O)[C@H](CC(C)C)NC(=O)[C@@H](NC(=O)[C@@H](NC(=O)[C@H](CCCCN)NC(=O)[C@H](C)NC(=O)[C@H](C)NC(=O)[C@H](CO)NC(=O)[C@H](CCCCN)NC(=O)[C@H](Cc1ccccc1)NC(=O)[C@@H](NC(=O)[C@H](CCCCN)NC(=O)[C@H](CC(C)C)NC(=O)[C@H](Cc1ccccc1)NC(=O)[C@H](CO)NC(=O)[C@H](CCCCN)NC(=O)[C@H](Cc1c[nH]c2ccccc12)NC(=O)[C@H](CCCCN)NC(C)=O)[C@@H](C)O)[C@@H](C)O)C(C)C)[C@@H](C)O)C(=O)N[C@@H](CO)C(=O)N[C@@H](CO)C(N)=O — C0 (minipigs, both sexes, blood; intravenous, 20 mg per animal): 14400 ± 5850 ng/mL
COc1cc(-c2[o+]c3cc(O)cc(O)c3cc2O[C@@H]2O[C@H](CO)[C@@H](O)[C@H](O)[C@H]2O)cc(OC)c1O — hue angle (CIELAB from visible spectra; aqueous buffer; 50 µM, pH 7, ±BSA 600 µM or lysozyme 1000 µM): 327.5 ± 0.39 degrees
CCC[C@@](N)(CO)CCc1ccc(OCCCCCC(C)C)cc1 — AUC(0-72 h) (dog, male hounds, plasma; oral capsule, 10 mg/kg, geometric mean): 6.78 µM·h
O=[N+]([O-])NC1=NCCN1Cc1ccc(Cl)nc1 — dose fraction in milk fat (whole cow milk; 200 nM nominal): 2.45%
COc1cccc(Oc2ccccc2NC(=O)CNC(=O)c2cccc3ccccc23)c1 — sodium/potassium ratio (esterase-deficient SCID mice, male; oral, 40 mg/kg/day, 14 days, toxicity study): 18 and 22
C[C@]12CC[C@@H]3c4ccc(O)cc4CC[C@H]3[C@@H]1CCC2=O — dose fraction in permeate (ultrafiltration; cow milk whey; 2000 nM nominal in whole milk): 13.7%
CN1CC[C@@H](c2c(O)cc(O)c3c(=O)cc(-c4ccc(C(F)(F)F)cc4Cl)oc23)[C@@H]1CO — patients with adverse event (item: Dizziness; B-cell malignancies or AML; oral, 100 mg, continuous dosing): 12.5%
C[C@]1(CO)Cc2ncn(-c3ccc(C#N)c(Cl)c3)c2C(=O)O1 — linearity index (human, plasma; 3 mg multiple doses; reference: dose-proportional exposure): 102%
COc1ccc(-c2c(-c3ccc(C#N)c(F)c3)nc(N3CCC(N)CC3)n(C)c2=O)cc1F — treatment-related adverse event incidence (item: Constipation; relapsed/refractory marginal zone lymphoma patients; oral, 60 mg, grade 3 to 4, dose expansion): 0%
CC(C)(O)c1cc(Nc2cc(Oc3cn(C4CC4)nc3C3CCOCC3)ccn2)ccn1 — treatment-emergent adverse events (Headache; advanced cancer patients, dose escalation; oral, dose not given, 2 weeks on/off, all causality grade ≥3): 10%
CCN1[C@@H](C(=O)NC23CCC(C(=O)O)(CC2)CC3)[C@H](c2cccc(Cl)c2F)[C@]2(C(=O)Nc3cc(Cl)ccc32)C12CCCCC2 — grade 3/4 neutropenia incidence (patients with advanced solid tumours; oral, dose not given, all doses): 23.8%
COc1cc(C(=O)NC2CCN(C)CC2)c(F)cc1Nc1ncc(C(F)(F)F)c(Oc2cccc3c2C(=O)N(C)C3)n1 — mean residence time at steady state (human patients, plasma; oral, 25 mg once daily repeated, geometric mean): 38.4 h
O=C1[O][Pt]2([NH][C@@H]3CCCC[C@H]3[NH]2)[O]C1=O — terminal half-life (mouse BALB/c, serum; intravenous, 9 mg/kg): 32.5 h
CCc1ccc(CC/C=C/c2ccc3c(c2)C(=O)CC3)cc1 — Urea (Sprague-Dawley rat, female; oral, 30 mg/kg/day, 14 days): 4.83 mM
Clc1nc[n]([Au][PH](c2ccccc2)(c2ccccc2)c2ccccc2)c1Cl — MRT (NCG mouse, plasma; intraperitoneal, 10 mg/kg): 11.4 h
COc1ncccc1-c1cnn2ccc(N3CCN(C(=O)OC(C)C)CC3)nc12 — drug concentration (mouse nerve ligation model, brain; oral, 10 mg/kg, 180 min after last dose, repeat dosing day 1): 6.1 µM
Clc1ccc(-c2ccccc2)cc1 — alkaline phosphatase (Sprague-Dawley rats, female, serum; inhalation, 23 µg/rat, 2 h after exposure): 122 ± 28 U/L
CC(C)[C@@H]1NC(=O)CNC(=O)[C@H](CC(N)=O)NC(=O)[C@H](CCCNC(=N)N)NC(=O)[C@H](Cc2ccc(O)cc2)NC(=O)[C@H](C(C)C)NC(=O)[C@@H](NC(=O)[C@@H](NC(=O)[C@H](CC(N)=O)NC(=O)[C@H](Cc2c[nH]c3ccccc23)NC(=O)[C@H](C)NC(=O)[C@H](Cc2ccccc2)NC(=O)CN)C(C)C)CSSC[C@@H](C(=O)N[C@@H](Cc2cnc[nH]2)C(=O)N[C@@H](CCCNC(=N)N)C(=O)N[C@@H](CCCNC(=N)N)C(=O)N[C@@H](C)C(=O)N[C@@H](CC(N)=O)C(N)=O)NC(=O)[C@H](C(C)C)NC(=O)[C@H](CCCNC(=N)N)NC1=O — AST (ICR mice, serum; intraperitoneal, 10 mg/kg, day 5): 25.9 ± 1.01 IU/L
O=S(=O)(Nc1ccccc1)c1ccc(NC(=S)Nc2ccccc2)cc1 — blood chemistry level (item: BUN; male mouse, blood; oral, 5 mg/kg daily, 14 days): 18.8 mg/dL
CC(=O)c1c(C)c2cnc(Nc3ccc(C4CCN(CCS(C)(=O)=O)CC4)cn3)nc2n(C2CCCC2)c1=O — Tmax (human, plasma; oral, 50 mg, day 1 single dose): 2.33 h
O=C(Nc1ccc2c(c1)B(O)OC2)c1cccc(OCc2c(Cl)cccc2Cl)c1 — acceptor concentration (PAMPA; pre-coated trilayer membrane; 200 µM, 5 h, pH 7.4, acceptor plate, PBS): 4.3 ± 0.6 µM
Cc1ncnc2c1ccn2[C@@H]1C[C@H](Oc2cc(C(F)F)c(F)c3c2CNCC3)[C@@H](O)[C@H]1O — Dysgeusia incidence (patients; dose not given, any grade; reference: patients): 9%
CC(C)(C)c1cc(-n2nc3ccccc3n2)c(O)c(C(C)(C)C)c1 — daily dermal exposure dose (human aged 3-6 years; concentration not given, sunscreen, 95th percentile): 6.38 ng/kg/day
COc1cc2c(Oc3ccc4[nH]c(C)cc4c3F)ccnc2cc1OCC1(N)CC1 — incidence of adverse event (item: grade 3 blurred vision; paediatric high-risk refractory sarcoma; whole group): 0%

Some of these lines once more:
CCN1[C@@H](C(=O)NC23CCC(C(=O)O)(CC2)CC3)[C@H](c2cccc(Cl)c2F)[C@]2(C(=O)Nc3cc(Cl)ccc32)C12CCCCC2 — grade 3/4 neutropenia incidence (patients with advanced solid tumours; oral, dose not given, all doses): 23.8%
COc1cc(C(=O)NC2CCN(C)CC2)c(F)cc1Nc1ncc(C(F)(F)F)c(Oc2cccc3c2C(=O)N(C)C3)n1 — mean residence time at steady state (human patients, plasma; oral, 25 mg once daily repeated, geometric mean): 38.4 h
O=C1[O][Pt]2([NH][C@@H]3CCCC[C@H]3[NH]2)[O]C1=O — terminal half-life (mouse BALB/c, serum; intravenous, 9 mg/kg): 32.5 h
CCc1ccc(CC/C=C/c2ccc3c(c2)C(=O)CC3)cc1 — Urea (Sprague-Dawley rat, female; oral, 30 mg/kg/day, 14 days): 4.83 mM
Clc1nc[n]([Au][PH](c2ccccc2)(c2ccccc2)c2ccccc2)c1Cl — MRT (NCG mouse, plasma; intraperitoneal, 10 mg/kg): 11.4 h
